Results of several laboratories.
Protocols differ between the studies behind these lines.
Cell line: HCT-116

Structure (SMILES)	effect on	method	tested at	time	setting	endpoint	result
C#C[C@@]1(O)[C@@H](CO)O[C@@H](n2cc(I)c3c(N)ncnc32)[C@@H]1O	cell growth or viability	SRB		48 h		GI50	0.045 µM
NCCC(=O)Nc1ccccc1/N=c1\cc(-c2ccc3nc(N)oc3c2)oc2ccccc12	cell growth or viability	CCK-8	1 µM			inhibition	78.5%
CCC(C)Oc1nc(N)nc(N)c1C#N (stereo not drawn)	cell growth or viability	SRB		72 h		GI50	73 µM
Cc1ccc(C(C)C)cc1.Cc1ccc(C(C)C)cc1.[Cl][Ru][Cl].[Cl][Ru][Cl]	cell growth or viability	trypan blue		48 h		IC90	1330 µM
COc1cc(CNC(=O)CCCC/C=C/C(C)C)ccc1OCc1cn(-c2ccccc2Cl)nn1		SRB	10 µM	48 h		growth percent	100%
Cc1ccc(C=NNc2nc(-c3ccc(C#N)cc3)cs2)cc1C	colony formation	clonogenic	5 µM	24 h		inhibition	5 to 30%
COc1cc(CNC(=O)C[C@H](C)CCC=C(C)C)ccc1OCc1cn(-c2ccc(Cl)cc2)nn1		SRB	10 µM	48 h		growth percent	38.2%
O=C(O)c1cc(/N=N/c2ccc(O)c(C(=O)O)c2)ccc1O	cell viability	AO/PI counting		48 h		toxic concentration	> 500 µM
COc1cc(CNC(=O)CCCC/C=C/C(C)C)ccc1OCc1cn(-c2ccc([N+](=O)[O-])cc2)nn1		SRB	10 µM	48 h		growth percent	77.2%
Cl.Cl.O=C(Nc1ccc(O[C@@H]2CCNC2)c(-c2cccc(-c3nn[nH]n3)c2)c1)c1ccc(O[C@H]2CCNC2)c(-c2ccc(F)c(F)c2)c1		co-immunoprecipitation			β-catenin/BCL9-disrupting concentrations	β-catenin/E-cadherin interaction	no effect
N#Cc1ccc(-c2csc(NN=Cc3c(F)cc(F)cc3F)n2)cc1	colony formation		10 µM	24 h		inhibition	100%
CC1=C(C(=O)Nc2ccccc2)C(c2ccc3ccc4cccc5ccc2c3c45)NC(=S)N1 (stereo not drawn)	cell growth or viability	MTT	10 µM			inhibition	79.6%
Cc1nc2ccc(Cl)cc2c(=O)n1NC1=NC(=O)CS1	cell growth or viability	LDH	200 µg/mL	24 h		viability	28%
Cc1[nH]c(=S)nc2c1c(=O)oc1ccc3ccccc3c12	cell growth or viability	MTT	10 µM			inhibition	65.7%
CS(=O)(=O)N1CCN(Cc2cc3nc(-c4cccc5[nH]ncc45)nc(N4CCOCC4)c3s2)CC1	cell growth or viability	SRB		72 h		GI50	1.7 µM
Cc1ccc(-n2c(SCC(=O)NNC(=O)Nc3ccccc3)nc3ccccc3c2=O)cc1		annexin V-FITC/PI flow cytometry	concentration not given	24 h		late apoptotic cells	16.5%
C#C[C@@]1(O)[C@@H](CO)O[C@@H](n2cc(Br)c3c(N)ncnc32)[C@@H]1O	cell growth or viability	SRB		48 h		GI50	0.028 µM
COc1cc(/C=N/n2c(C)nc3ccc(Br)cc3c2=O)ccc1OCc1ccc(Cl)cc1	cell growth or viability	LDH	200 µg/mL	24 h		viability	93.5%
N#Cc1ccc(-c2csc(NN=Cc3ccccc3F)n2)cc1	colony formation	clonogenic	5 µM	24 h		inhibition	5 to 30%
CC12NC(=O)NC(c3c(ccc4ccccc34)O1)C2C(=O)Nc1cccnc1 (stereo not drawn)	cell growth or viability	MTT	10 µM			inhibition	64.6%
N#Cc1ccc(-c2csc(NN=Cc3sccc3Br)n2)cc1	colony formation	clonogenic	5 µM	24 h		inhibition	5 to 30%
CO[C@H]1C[C@@H]2CC[C@@H](C)[C@@](O)(O2)C(=O)C(=O)N2CCCC[C@H]2C(=O)O[C@H]([C@H](C)C[C@@H]2CC[C@@H](O)[C@H](OC)C2)CC(=O)[C@H](C)/C=C(\C)[C@@H](O)[C@@H](OC)C(=O)[C@H](C)C[C@H](C)/C=C/C=C/C=C/1C	cell growth or viability	SRB		72 h		GI50	2.3 µM
COc1cc(CNC(=O)CCCC/C=C/C(C)C)ccc1OCc1cn(-c2ccc(C(F)(F)F)cc2)nn1		SRB	10 µM	48 h		growth percent	2.97 to 49.1%
N#Cc1ccc(-c2csc(NN=Cc3c(F)c(F)c(F)c(F)c3F)n2)cc1	colony formation	clonogenic	5 µM	24 h		inhibition	5 to 30%
COc1cc(CNC(=O)CCCC/C=C/C(C)C)ccc1OCc1cn(-c2ccc(C)cc2)nn1		SRB	10 µM	48 h		growth percent	92.4%
CC12NC(=S)NC(c3c(ccc4ccccc34)O1)C2C(=O)Nc1ccccc1 (stereo not drawn)	cell growth or viability	MTT	10 µM			inhibition	68.7%
N#Cc1ccc(-c2csc(NN=Cc3c(Cl)cccc3Cl)n2)cc1	colony formation		5 µM	24 h		inhibition	5 to 50%
COc1cc(CNC(=O)CCCC/C=C/C(C)C)ccc1OCc1cn(-c2ccc(F)cc2)nn1		SRB	10 µM	48 h		growth percent	65.6%
N#Cc1ccc(-c2csc(NN=Cc3cccc(F)c3)n2)cc1	colony formation		5 µM	24 h		inhibition	5 to 50%
CC12NC(=S)NC(c3c(ccc4ccccc34)O1)C2C(=O)Nc1cccnc1 (stereo not drawn)	cell growth or viability	MTT	10 µM			inhibition	45.6%

Repeated from above:
Structure (SMILES)	effect on	method	tested at	time	setting	endpoint	result
Cc1nc2ccc(Cl)cc2c(=O)n1NC1=NC(=O)CS1	cell growth or viability	LDH	200 µg/mL	24 h		viability	28%
Cc1[nH]c(=S)nc2c1c(=O)oc1ccc3ccccc3c12	cell growth or viability	MTT	10 µM			inhibition	65.7%
